# Measured values from different studies.
# Lines come from different studies, so protocols differ. ± gives the spread as reported.
# ACTA1 pyrene-labeled: Actin, alpha skeletal muscle, pyrene-labeled (ACTA1, Oryctolagus cuniculus, UniProt P68135)
# CHUK: Inhibitor of nuclear factor kappa-B kinase subunit alpha (CHUK, Homo sapiens, UniProt O15111)
# CCKAR: Cholecystokinin receptor type A (CCKAR, Homo sapiens, UniProt P32238)
# gag-pol reverse transcriptase: Gag-Pol polyprotein, reverse transcriptase (gag-pol, Human immunodeficiency virus 1, UniProt P03366)
# GABBR1: Gamma-aminobutyric acid type B receptor subunit 1 (GABBR1, Homo sapiens, UniProt Q9UBS5)
# Voltage-dependent P/Q-type calcium channel subunit alpha-1A: Voltage-dependent P/Q-type calcium channel subunit alpha-1A (Homo sapiens, UniProt O00555)
SMILES,tested on,test,system,conditions,how to read,measurement,value
CO[C@]1([C@@H]2CSC(=O)N2C(=O)c2ccccc2)C[C@H]2C[C@@H](CC[C@H](C)/C=C\C=C\CC/C(C)=C\C(=O)O2)O1,ACTA1 pyrene-labeled,"actin polymerization, pyrene actin",,1 µM,reference: vehicle,inhibition,53%
CCCCCCCCCCCCOS(=O)(=O)[O-].[Na+],"Envelope glycoprotein gp160, gp41 hydrophobic pocket (env, Human immunodeficiency virus type 1 group M subtype B, UniProt P04578)",competitive fluorescence recovery,,20 µM,,inhibition,75%
CN(C(=O)n1cnc(-c2ccc[n+]([O-])c2)c1)C1CCCCC1,CHUK,enzyme activity,,10 µM,,inhibition,4%
O=c1ccc2ccccc2o1,CCKAR,radioligand binding,,10 µM,,inhibition,0.416%
O=C(Nc1cnccc1Cl)N1CCN(Cc2ccc3c(c2)OC(F)(F)O3)CC1,CCKAR,binding,,"10 µM, together with: [3H]L-364,718",,inhibition,-5%
C/C1=C/C(=O)O[C@@H]2C[C@@H](CC[C@H](C)/C=C\C=C\CC1)O[C@@](OCCc1ccccc1)([C@@H]1CSC(=O)N1)C2,ACTA1 pyrene-labeled,"actin polymerization, pyrene actin",,0.1 µM,reference: vehicle,inhibition,31%
O=C1CSC(c2c(Cl)cccc2Cl)N1c1cccc(S(=O)(=O)Nc2nccs2)c1 (centres unmarked),gag-pol reverse transcriptase,,,4 µM,,inhibition,11.4%
CCCNCCc1c[nH]c2cccc(O)c12.CCCNCCc1c[nH]c2cccc(O)c12.O=C(O)/C=C/C(=O)O,,,C57BL/6J mice,"subcutaneous, 10 mg/kg",,head twitch count,52.2 ± 3.3
O=C1CSC(c2ccc(Cl)cc2)N1c1nc(-c2ccc(S(=O)(=O)N3CCOCC3)cc2)cs1 (centres unmarked),gag-pol reverse transcriptase,,,4 µM,,inhibition,81.3%
C[C@H]1CN(c2n[nH]c3nc(N[C@H]4CC[C@H](NS(=O)(=O)CCC(F)(F)F)CC4)ncc23)CCO1,"Cytoplasmic dynein 1 heavy chain 1 (DYNC1H1, Homo sapiens, UniProt Q14204)","inhibitor, Kinobeads competition profiling",,0.16 µM,reference: vehicle,relative abundance,1.02
C/C1=C/C(=O)O[C@@H]2C[C@@H](CC[C@H](C)/C=C\C=C\CC1)O[C@@](O)([C@@H]1CSC(=O)N1Cc1ccccc1)C2,ACTA1 pyrene-labeled,"actin polymerization, pyrene actin",,0.1 µM,reference: vehicle,inhibition,24%
CN(CCN1CCC(OC(=O)Nc2ccccc2-c2ccccc2)CC1)C(=O)c1ccc(CN2CCC(C(N)=O)CC2)cc1,rat AMPA receptor,radioligand binding,,"1 µM, together with: [3H]AMPA 8.0 nM",,inhibition,-1%
CC(C)CC(=O)OC[C@H]1O[C@@](C#N)(c2ccc3c(N)ncnn23)[C@H](O)[C@@H]1O,GABBR1,,,20 µM,,inhibition,14%
COc1cc(CCC[P+](c2ccccc2)(c2ccccc2)c2ccccc2)c(OC)c2c1OCO2.[I-],NCI-H522,SRB,,,,LC50,> -4 log M
Cc1ncc(C)n2nc(/C=C/c3nc(N4CCCC4)cc(N4CCOCC4)n3)nc12,"Soluble guanylate cyclase alpha1/beta1 complex (Homo sapiens, UniProt Q02108+Q02153)",enzyme activity,,10 µM,,inhibition,1%
O=C1CSC(c2cccc(Cl)c2Cl)N1c1cccc(S(=O)(=O)Nc2nccs2)c1 (centres unmarked),gag-pol reverse transcriptase,,,4 µM,,inhibition,6.89%
COc1ccc(N2C(=O)N(c3c(C)cccc3Cl)Cc3cnc(Nc4ccc(C5CCN(C)CC5)cc4OC)nc32)nc1,"Mitogen-activated protein kinase 9 (MAPK9, Homo sapiens, UniProt P45984)","kinase activity, inhibitor",,"0.5 µM, kinase JNK2",,inhibition,2.5%
Oc1ccc2c3c1O[C@H]1[C@@H](O)CC[C@@]4(O)[C@@H](C2)N(CC2CCC2)CC[C@]314,"Lysophosphatidic acid receptor 4 (LPAR4, Homo sapiens, UniProt Q99677)","β-arrestin recruitment, TANGO luminescence, item: GPR23",,concentration not given,reference: basal luminescence,log2 fold change,0.274
Clc1cccc(-c2c[nH]c3ncnc(N4CCOCC4)c23)c1,"Serine/threonine-protein kinase 3 (STK3, Homo sapiens, UniProt Q13188)","kinase activity, inhibitor, PhosphoSens kinetic",,"concentration not given, 2 h, together with: ATP at Km",,inhibition,inhibited
C=CCNCCc1c[nH]c2cccc(O)c12.C=CCNCCc1c[nH]c2cccc(O)c12.O=C(O)/C=C/C(=O)O,,,C57BL/6J mice,"subcutaneous, 3 mg/kg",,head twitch count,74.3 ± 3.8
CN1CCN(c2cc(-c3ccncc3)c(-c3ccc4ccccc4c3)nn2)CC1,"P2Y purinoceptor 1 (P2RY1, Homo sapiens, UniProt P47900)","antagonist, FLIPR",,10 µM,,inhibition,5.1%
Cn1cc(-c2cc(F)cc(N3CCn4c(cc5c4CCCC5)C3=O)c2CO)cc(Nc2ccc(N3CCN(C4COC4)CC3)cn2)c1=O,"Protein kinase C beta type, isoform beta-I (PRKCB, Homo sapiens, UniProt P05771)","kinase activity, inhibitor, SelectScreen kinase profiling",,"0.1 µM, together with: ATP at apparent Km",,inhibition,-9%
CN1CCN(c2nc(N)c3ccccc3n2)CC1,"5-hydroxytryptamine receptor 4, isoform 5-HT4e (HTR4, Homo sapiens, UniProt Q13639)",radioligand binding,,0.1 µM,,inhibition,1.8%
CCN(C)C(=O)Oc1cccc([C@H](C)N(C)C)c1,Voltage-dependent P/Q-type calcium channel subunit alpha-1A,"ion current, antagonist",HEK293,3 µM,,inhibition,2%
N=C(N)NCCC[C@@H]1NC(=O)[C@H](CCCCNC(=O)c2ccc(CNC34CNCCNCC(N)(CNCCNC3)CNCCNC4)cc2)NC(=O)[C@@H](Cc2ccc(O)cc2)NC(=O)[C@H](CC(=O)O)NC(=O)CNC1=O [copper-64 labelled],,microPET imaging,"athymic nude mice, male, PC-3 xenograft, PC-3 tumour","intravenous, 0.2 nmol, 7.4 MBq, 48 h",,tumour uptake,0.5 ± 0.07 %ID/g
COc1cccc(C2SCC(=O)N2c2cccc(S(=O)(=O)Nc3nccs3)c2)c1 (centres unmarked),gag-pol reverse transcriptase,,,4 µM,,inhibition,33.2%
CC[C@H](C)[C@H](NC(=O)[C@H](Cc1ccccc1)NC(=O)[C@H](CCC(=O)O)NC(=O)[C@H](CCCNC(=N)N)NC(=O)[C@H](C)NC(=O)[C@H](C)NC(=O)[C@H](CCC(N)=O)NC(=O)[C@H](CCC(=O)O)NC(=O)[C@H](CCC(=O)O)NC(=O)[C@H](CC(C)C)NC(=O)[C@H](Cc1ccc(O)cc1)NC(=O)[C@H](CO)NC(=O)[C@H](CO)NC(=O)[C@@H](NC(=O)[C@H](CC(=O)O)NC(=O)[C@H](CO)NC(=O)[C@@H](NC(=O)[C@H](Cc1ccccc1)NC(=O)[C@@H](NC(=O)CNC(=O)[C@H](CCC(=O)O)NC(=O)[C@H](C)NC(=O)CCc1c[nH]cn1)[C@@H](C)O)[C@@H](C)O)C(C)C)C(=O)N[C@@H](C)C(=O)N[C@@H](Cc1c[nH]c2ccccc12)C(=O)N[C@@H](CC(C)C)C(=O)N[C@H](C(=O)N[C@@H](CCCNC(=N)N)C(=O)NCC(=O)N[C@@H](CCCNC(=N)N)C(=O)N[C@@H](CCCCNC(=O)COCCOCCNC(=O)COCCOCCNC(=O)CC[C@H](NC(=O)CCCCCCCCCCCCCCCCC(=O)O)C(=O)O)C(=O)NCC(=O)NCC(=O)N[C@@H](CO)C(=O)N[C@@H](CCCCNc1c(NCCCCCN(O)C(=O)CCC(=O)NCCCCCN(O)C(=O)CCC(=O)NCCCCCN(O)C(C)=O)c(=O)c1=O)C(=O)O)C(C)C [zirconium-89 labelled],,,"rat, pancreas","iv, 3 nmol/kg, 4 h, ex vivo",,tissue uptake,0.3 %ID/g
c1ccc(C(NCCNC(c2ccccc2)c2ccccc2)c2ccccc2)cc1,CHUK,enzyme activity,,"10 µM, Eurofins selectivity panel",,inhibition,-14%
Cn1cccc1-c1cccnc1,"D(1A) dopamine receptor (DRD1, Homo sapiens, UniProt P21728)",binding,,50 µM,,inhibition,-17.2%
CC(C)N1CCC[C@H]1CNC(=O)c1cn(C2CCCC2)c(=O)c2c1c1ccccc1n2C,GABBR1,radioligand binding,,10 µM,,inhibition,-2%
C#Cc1n[nH]c2c(-c3cn(C(C)c4ccccn4)c(=O)[nH]c3=O)cc(F)cc12 (centres unmarked),"Phosphatidylinositol 4,5-bisphosphate 3-kinase catalytic subunit delta isoform, with p85 alpha (PIK3CD, Homo sapiens, UniProt O00329)","kinase activity, inhibitor",,1 µM,,inhibition,8.6%
CO[C@]1([C@@H]2CSC(=O)N2Cc2ccccc2)C[C@H]2C[C@@H](CC[C@H](C)/C=C\C=C\CC/C(C)=C\C(=O)O2)O1,ACTA1 pyrene-labeled,"actin polymerization, pyrene actin",,1 µM,reference: vehicle,inhibition,67%
CC[C@H](C)[C@@H]1NC(=O)[C@@H]2CCCN2C(=O)[C@H](CC(C)C)NC(=O)[C@H](CC(C)C)NC(=O)CNC(=O)[C@@H](NC(=O)[C@@H](NC(=O)[C@H](CC(=O)O)NC(=O)CNC(=O)[C@@H](NC(=O)[C@H](C)NC(=O)CNC(=O)[C@H](CCCCN)NC(=O)[C@H](CC(C)C)NC(=O)[C@H](CC(C)C)NC(=O)[C@H](CCCCN)NC(=O)CNC(=O)[C@@H](NC(=O)[C@@H](N)CC(C)C)C(C)C)C(C)C)C(C)C)CSSC[C@@H](C(=O)O)NC1=O,,"RNA-seq, item: Psd4","mouse, traumatic brain injury model, frontal cortex and hippocampus",dose not given,reference: TBI alone,log2 fold change,-2.28
O=C(Nc1cccnn1)N1CCC(=Cc2cccc(Oc3ccc(C(F)(F)F)cn3)c2)CC1,CHUK,"enzyme activity, inhibitor",,50 µM,,inhibition,6%
C/C1=C/C(=O)O[C@@H]2C[C@@H](CC[C@H](C)/C=C\C=C\CC1)O[C@@](OC(=O)c1ccccc1)([C@@H]1CSC(=O)N1)C2,ACTA1 pyrene-labeled,"actin polymerization, pyrene actin",,1 µM,reference: vehicle,inhibition,67%
CC[C@H](C)[C@H](NC(=O)[C@@H](NC(=O)[C@H](N)Cc1ccccc1)C(C)C)C(=O)N[C@@H](C)C(N)=O,"Amyloid-beta precursor protein (APP, Homo sapiens, UniProt P05067)","amyloid-beta aggregation, thioflavin T fluorescence",,"0.5 µM, 168 h, together with: 2 µM amyloid-beta",,inhibition,46.8%
COc1cc2c(c(OC)c1OC)-c1ccc(OC)c(=O)cc1[C@@H](NC(C)=O)CC2,Voltage-dependent P/Q-type calcium channel subunit alpha-1A,"ion current, antagonist",HEK293,30 µM,,inhibition,5%
Cn1cc(-c2cccc(N3CCc4c(sc5c4CC(C)(C)C5)C3=O)c2CO)cc(Nc2ccncn2)c1=O,"3-phosphoinositide-dependent protein kinase 1 (PDPK1, Homo sapiens, UniProt O15530)","kinase activity, inhibitor, SelectScreen",,"1 µM, together with: ATP",,inhibition,19%
O=C1CSC(c2ccc(F)cc2)N1c1cccc(S(=O)(=O)Nc2nccs2)c1 (centres unmarked),gag-pol reverse transcriptase,,,4 µM,,inhibition,68.3%
C#Cc1n[nH]c2c(-c3cn([C@@H](C)c4ccccc4)c(=O)[nH]c3=O)cc(F)cc12,"5'-AMP-activated protein kinase catalytic subunit alpha-2, with beta1 gamma1 (PRKAA2, Homo sapiens, UniProt P54646)","kinase activity, inhibitor",,100 nM,,inhibition,0.9%
CC[C@H](C)[C@H](NC(=O)[C@H](C)NC(=O)[C@H](CCCCN)NC(=O)[C@H](CC(C)C)NC(=O)[C@H](C)NC(=O)[C@@H](NC(=O)[C@H](Cc1c[nH]cn1)NC(=O)[C@H](CC(C)C)NC(=O)[C@@H](NC(=O)[C@@H](NC(=O)[C@H](CCCCN)NC(=O)[C@H](C)NC(=O)[C@H](C)NC(=O)[C@H](CO)NC(=O)[C@H](CCCCN)NC(=O)[C@H](Cc1ccccc1)NC(=O)[C@@H](NC(=O)[C@H](CCCCN)NC(=O)[C@H](CC(C)C)NC(=O)[C@H](Cc1ccccc1)NC(=O)[C@H](CO)NC(=O)[C@H](CCCCN)NC(=O)[C@H](Cc1c[nH]c2ccccc12)NC(=O)[C@H](CCCCN)NC(C)=O)[C@@H](C)O)[C@@H](C)O)C(C)C)[C@@H](C)O)C(=O)N[C@@H](CO)C(=O)N[C@@H](CO)C(N)=O,Enterococcus faecium,,Enterococcus faecalis,40 strains,,MIC geometric mean,14.2 µg/mL
COc1cccc(C2SCC(=O)N2c2nc(-c3ccc(S(=O)(=O)N4CCCC4)cc3)cs2)c1 (centres unmarked),gag-pol reverse transcriptase,,,4 µM,,inhibition,1.28%
COc1c(CCC[P+](c2ccccc2)(c2ccccc2)c2ccccc2)cc2c(c1OC)OCO2.[I-],HCC 2998,SRB,,,,LC50,-4.3 log M
O=C(c1ccc(Cl)cc1)N1CCN2C(=O)N(OC(=O)N3CCOc4ccccc43)C(=O)C2C1 (centres unmarked),"Proteasome Macropain subunit (Homo sapiens, UniProt P49721)",MS-based ABPP,SW-620 conditioned medium,10 µM,"reference: compound over DMSO, lower = more inhibition",median protein ratio,1.09
C[C@@H](O)[C@@H](CO)NC(=O)[C@@H](CCCNC(=N)N)NC(=O)[C@@H]1CCCN1C(=O)[C@@H]1CSSC[C@H](NC(=O)[C@H](Cc2ccccc2)NC(=O)CN2CCN(CC(=O)O)CCN(CC(=O)O)CCN(CC(=O)O)CC2)C(=O)N[C@@H](Cc2ccc(O)cc2)C(=O)N[C@@H](Cc2ccccc2)C(=O)N[C@@H](CCC(N)=O)C(=O)N[C@@H](CC(N)=O)C(=O)N1 [gallium-68 labelled],,,"healthy Wistar rat, pancreas","intravenous, 8 MBq, 60 min, individual animals",,tissue uptake,0.15 %ID/g
C[C@H](C(=O)N[C@H]1COc2ccccc2[C@@H]1S(C)(=O)=O)c1ccc(F)cc1,Ca2+/calmodulin-dependent protein kinase II (rat),Eurofins selectivity panel,,10 µM,,inhibition,0%
COc1cc(Nc2ncc(F)c(Nc3ccc4c(n3)NC(=O)C(C)(C)O4)n2)cc(OC)c1OC,"5'-AMP-activated protein kinase catalytic subunit alpha-2 (PRKAA2, Homo sapiens, UniProt P54646)",KINOMEscan,,"10 µM, AMPK-alpha2",,inhibition,76%
